# Results from different studies.
# Lines come from different studies, so protocols differ. ± marks the error that the study gave.
# EPHA4: Ephrin type-A receptor 4 (EPHA4, Homo sapiens, UniProt P54764)
# UniProt P54764, sequence (whole entry, looked up): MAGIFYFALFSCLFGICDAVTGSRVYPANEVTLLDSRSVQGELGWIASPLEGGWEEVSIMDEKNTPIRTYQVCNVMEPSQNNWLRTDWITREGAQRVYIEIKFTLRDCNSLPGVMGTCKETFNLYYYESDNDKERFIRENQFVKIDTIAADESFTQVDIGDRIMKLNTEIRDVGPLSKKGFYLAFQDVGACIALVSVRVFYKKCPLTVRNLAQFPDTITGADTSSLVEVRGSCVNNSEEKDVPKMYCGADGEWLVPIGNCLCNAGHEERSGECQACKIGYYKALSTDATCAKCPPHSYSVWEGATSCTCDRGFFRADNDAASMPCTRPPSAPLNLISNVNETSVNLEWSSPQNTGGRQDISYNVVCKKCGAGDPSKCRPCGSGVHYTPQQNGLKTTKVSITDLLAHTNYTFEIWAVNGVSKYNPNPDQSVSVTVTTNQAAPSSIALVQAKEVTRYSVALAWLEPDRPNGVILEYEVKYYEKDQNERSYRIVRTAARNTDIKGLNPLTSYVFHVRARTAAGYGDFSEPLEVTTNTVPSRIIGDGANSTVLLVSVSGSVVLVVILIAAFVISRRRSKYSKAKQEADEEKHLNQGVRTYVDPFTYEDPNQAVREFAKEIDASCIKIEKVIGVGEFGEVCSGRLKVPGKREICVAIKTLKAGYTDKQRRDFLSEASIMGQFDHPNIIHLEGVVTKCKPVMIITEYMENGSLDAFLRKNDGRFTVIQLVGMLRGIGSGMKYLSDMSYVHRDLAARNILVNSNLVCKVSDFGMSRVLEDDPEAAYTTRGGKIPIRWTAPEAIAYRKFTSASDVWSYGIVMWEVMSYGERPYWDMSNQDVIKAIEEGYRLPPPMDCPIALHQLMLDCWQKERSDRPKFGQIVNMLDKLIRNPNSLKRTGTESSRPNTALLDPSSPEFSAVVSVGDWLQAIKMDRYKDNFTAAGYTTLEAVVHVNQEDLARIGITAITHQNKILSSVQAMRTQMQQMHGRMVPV
# DDR1: Epithelial discoidin domain-containing receptor 1 (DDR1, Homo sapiens, UniProt Q08345)
# UniProt Q08345, sequence (whole entry, looked up): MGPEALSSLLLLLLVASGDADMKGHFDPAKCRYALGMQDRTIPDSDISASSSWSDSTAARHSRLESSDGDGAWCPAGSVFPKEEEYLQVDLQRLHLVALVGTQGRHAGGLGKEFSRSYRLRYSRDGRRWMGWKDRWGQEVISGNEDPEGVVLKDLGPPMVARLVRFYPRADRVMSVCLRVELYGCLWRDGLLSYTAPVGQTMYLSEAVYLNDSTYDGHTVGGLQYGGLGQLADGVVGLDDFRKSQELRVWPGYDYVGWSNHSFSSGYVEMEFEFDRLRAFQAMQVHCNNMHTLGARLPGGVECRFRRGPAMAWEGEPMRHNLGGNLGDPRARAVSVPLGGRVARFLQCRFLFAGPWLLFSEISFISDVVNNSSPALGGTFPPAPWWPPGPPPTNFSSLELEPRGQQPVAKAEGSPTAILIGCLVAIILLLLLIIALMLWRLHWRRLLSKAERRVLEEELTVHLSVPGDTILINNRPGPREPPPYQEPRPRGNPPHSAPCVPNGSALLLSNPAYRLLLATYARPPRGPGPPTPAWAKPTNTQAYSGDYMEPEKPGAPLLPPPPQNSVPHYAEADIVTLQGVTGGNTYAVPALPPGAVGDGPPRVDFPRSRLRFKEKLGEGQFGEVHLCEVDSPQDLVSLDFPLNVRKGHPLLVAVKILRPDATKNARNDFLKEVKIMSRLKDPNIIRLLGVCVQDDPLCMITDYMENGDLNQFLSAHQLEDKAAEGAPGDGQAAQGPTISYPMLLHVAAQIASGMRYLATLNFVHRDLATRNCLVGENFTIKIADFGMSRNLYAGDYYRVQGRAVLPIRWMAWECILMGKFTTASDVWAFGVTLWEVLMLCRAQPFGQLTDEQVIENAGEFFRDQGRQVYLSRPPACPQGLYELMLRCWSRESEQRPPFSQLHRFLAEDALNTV
# UGT1A4: UDP-glucuronosyltransferase 1A4 (UGT1A4, Homo sapiens, UniProt P22310)
# UniProt P22310, sequence (whole entry, looked up): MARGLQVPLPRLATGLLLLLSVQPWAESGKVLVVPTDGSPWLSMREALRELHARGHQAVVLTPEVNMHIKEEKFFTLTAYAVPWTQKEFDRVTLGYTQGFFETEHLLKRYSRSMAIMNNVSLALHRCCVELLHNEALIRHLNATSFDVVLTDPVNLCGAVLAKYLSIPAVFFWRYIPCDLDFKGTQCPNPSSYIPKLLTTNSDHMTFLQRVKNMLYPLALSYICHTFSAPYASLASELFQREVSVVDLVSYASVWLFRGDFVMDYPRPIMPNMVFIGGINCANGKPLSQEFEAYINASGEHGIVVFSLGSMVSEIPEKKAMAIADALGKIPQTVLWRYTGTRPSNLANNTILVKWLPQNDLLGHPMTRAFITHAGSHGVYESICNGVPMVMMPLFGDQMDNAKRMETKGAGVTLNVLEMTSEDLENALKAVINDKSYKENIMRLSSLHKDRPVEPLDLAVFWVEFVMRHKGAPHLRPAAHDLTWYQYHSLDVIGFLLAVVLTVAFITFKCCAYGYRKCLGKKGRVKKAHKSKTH
# UniProt P49137, sequence (whole entry, looked up): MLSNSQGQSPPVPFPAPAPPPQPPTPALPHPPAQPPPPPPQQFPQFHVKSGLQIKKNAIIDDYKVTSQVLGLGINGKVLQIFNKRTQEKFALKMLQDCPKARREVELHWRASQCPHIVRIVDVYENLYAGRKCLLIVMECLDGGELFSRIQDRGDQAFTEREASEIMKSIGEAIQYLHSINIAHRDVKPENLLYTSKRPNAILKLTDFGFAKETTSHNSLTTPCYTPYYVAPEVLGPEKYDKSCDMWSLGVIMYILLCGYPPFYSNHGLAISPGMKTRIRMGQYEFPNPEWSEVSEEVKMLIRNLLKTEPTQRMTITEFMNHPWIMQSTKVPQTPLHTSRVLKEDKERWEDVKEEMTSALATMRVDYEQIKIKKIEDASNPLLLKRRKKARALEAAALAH
# UniProt Q9P1W9, sequence (whole entry, looked up): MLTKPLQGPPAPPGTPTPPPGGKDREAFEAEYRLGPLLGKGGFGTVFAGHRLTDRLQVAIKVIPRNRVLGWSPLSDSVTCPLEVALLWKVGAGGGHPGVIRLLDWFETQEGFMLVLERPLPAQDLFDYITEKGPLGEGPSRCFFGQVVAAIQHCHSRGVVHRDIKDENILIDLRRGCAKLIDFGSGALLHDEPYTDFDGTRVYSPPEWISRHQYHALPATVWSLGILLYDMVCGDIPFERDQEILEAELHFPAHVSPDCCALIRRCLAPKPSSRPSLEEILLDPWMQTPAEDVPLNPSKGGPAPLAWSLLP
# UniProt O00238, sequence (whole entry, looked up): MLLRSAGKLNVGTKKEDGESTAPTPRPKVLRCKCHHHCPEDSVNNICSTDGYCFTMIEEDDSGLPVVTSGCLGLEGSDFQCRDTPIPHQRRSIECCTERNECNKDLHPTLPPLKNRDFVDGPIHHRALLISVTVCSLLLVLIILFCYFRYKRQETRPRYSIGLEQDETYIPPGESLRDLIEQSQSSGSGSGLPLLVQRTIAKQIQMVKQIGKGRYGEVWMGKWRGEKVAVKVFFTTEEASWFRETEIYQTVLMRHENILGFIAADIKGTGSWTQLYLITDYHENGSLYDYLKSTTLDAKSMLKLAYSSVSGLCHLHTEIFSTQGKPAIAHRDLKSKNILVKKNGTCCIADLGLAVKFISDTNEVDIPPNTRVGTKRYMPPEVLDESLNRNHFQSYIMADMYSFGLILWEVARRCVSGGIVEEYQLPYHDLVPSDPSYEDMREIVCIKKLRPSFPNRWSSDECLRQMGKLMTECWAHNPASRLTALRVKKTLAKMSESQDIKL
# UniProt P27361, sequence (whole entry, looked up): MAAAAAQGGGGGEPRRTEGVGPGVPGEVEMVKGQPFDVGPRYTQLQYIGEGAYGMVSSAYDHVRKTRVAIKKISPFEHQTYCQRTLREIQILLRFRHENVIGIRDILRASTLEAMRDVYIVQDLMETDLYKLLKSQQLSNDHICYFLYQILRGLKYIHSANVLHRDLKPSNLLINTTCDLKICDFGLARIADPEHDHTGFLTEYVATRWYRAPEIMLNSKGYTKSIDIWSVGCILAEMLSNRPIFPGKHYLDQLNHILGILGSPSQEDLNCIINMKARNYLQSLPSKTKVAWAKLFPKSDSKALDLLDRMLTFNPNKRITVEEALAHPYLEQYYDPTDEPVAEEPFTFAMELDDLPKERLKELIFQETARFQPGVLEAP
# UniProt Q9BXA7, sequence (whole entry, looked up): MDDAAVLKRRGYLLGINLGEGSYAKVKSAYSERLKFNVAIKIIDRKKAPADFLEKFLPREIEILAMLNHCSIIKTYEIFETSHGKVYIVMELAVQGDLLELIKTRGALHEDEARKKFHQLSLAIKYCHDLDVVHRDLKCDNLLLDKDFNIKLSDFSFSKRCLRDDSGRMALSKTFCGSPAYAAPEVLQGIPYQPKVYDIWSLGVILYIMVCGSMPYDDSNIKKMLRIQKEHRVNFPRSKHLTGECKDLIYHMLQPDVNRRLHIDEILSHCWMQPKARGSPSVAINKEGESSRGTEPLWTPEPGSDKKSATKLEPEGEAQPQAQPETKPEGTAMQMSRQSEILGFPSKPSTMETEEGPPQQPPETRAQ
# UniProt Q13555, sequence (whole entry, looked up): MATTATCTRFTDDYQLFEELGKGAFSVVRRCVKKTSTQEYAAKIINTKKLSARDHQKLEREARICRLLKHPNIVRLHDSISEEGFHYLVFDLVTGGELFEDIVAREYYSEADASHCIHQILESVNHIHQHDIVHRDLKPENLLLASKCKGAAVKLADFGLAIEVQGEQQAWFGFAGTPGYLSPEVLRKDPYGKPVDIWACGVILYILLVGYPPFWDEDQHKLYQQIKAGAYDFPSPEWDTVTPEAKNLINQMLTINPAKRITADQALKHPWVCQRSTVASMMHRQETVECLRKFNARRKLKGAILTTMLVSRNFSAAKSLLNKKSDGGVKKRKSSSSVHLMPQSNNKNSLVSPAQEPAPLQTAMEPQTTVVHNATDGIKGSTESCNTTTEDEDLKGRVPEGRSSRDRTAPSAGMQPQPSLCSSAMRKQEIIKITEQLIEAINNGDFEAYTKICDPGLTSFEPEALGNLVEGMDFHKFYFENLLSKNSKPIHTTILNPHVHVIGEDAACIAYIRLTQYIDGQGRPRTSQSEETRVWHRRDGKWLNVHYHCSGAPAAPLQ
SMILES,target or system,assay,system,setting,scale,endpoint,value
O=C(NC1CCC1)c1ccc2nc(-c3cccc(NS(=O)(=O)NCCN4CCCCC4)c3)cn2c1,EPHA4,enzyme activity,,10 µM,,remaining activity,79%
O=C1NC(=O)/C(=C/c2ccc(-c3ccc(F)cc3O)o2)S1,VEGFR,enzyme activity,,10 µM,,remaining activity,22%
C=CC(=O)N1CCC[C@@H](n2nc(-c3ccc(Oc4ccccc4)cc3)c3c(N)ncnc32)C1,DDR1,"kinase activity, inhibitor, HotSpot radiometric",,"100 nM, together with: ATP 10 µM",,remaining activity,70.9 ± 1.6%
CN1CCN(C(=O)[C@H](CCCN[C@@H]2C[C@H]2c2ccc(F)cc2)NC(=O)c2ccc(-n3ccnn3)cc2)CC1,panel of kinases,"kinase activity, SelectScreen profiling",,10 µM,,remaining activity,≤ 15%
COc1cc(N2CCN(C)CC2)ccc1Nc1nc(N)n(C(=O)NCc2ccccc2S(=O)(=O)C(C)C)n1,"Epidermal growth factor receptor (EGFR, Homo sapiens, UniProt P00533, A750P/del747-749)",enzyme activity,,10 µM,baseline: control,remaining activity,6%
COc1cc(Nc2ncc3c(n2)-c2ccc(Cl)cc2C(c2c(F)cccc2OC)=NC3)ccc1C(=O)O,CAMK2A,kinase activity,,1 µM,,remaining activity,5%
COc1cc(F)ccc1-c1ncnc(Nc2cccc(C[S@](C)(=N)=O)c2)n1,"Tyrosine-protein kinase Blk (Blk, Mus musculus, UniProt P16277)",kinase activity,,"10 µM, together with: 10 µM ATP",,remaining activity,52%
COc1cc(-c2cncc3c2CN(C)Cc2cc(N4CCNCC4)ccc2-3)cc(OC)c1OC,"Calcium/calmodulin-dependent protein kinase type II subunit gamma (CAMK2G, Homo sapiens, UniProt Q13555)",kinase activity,,"1 µM, human enzyme, together with: ATP 10 µM",baseline: DMSO control,remaining activity,100%
COc1cc(N2CCN(C)CC2)ccc1Nc1nc(N)n(C(=O)NCc2c(Cl)cccc2Cl)n1,"Epidermal growth factor receptor (EGFR, Homo sapiens, UniProt P00533, G719S)",enzyme activity,,10 µM,baseline: control,remaining activity,22%
CNCC(=O)O,"Sodium- and chloride-dependent glycine transporter 1 (SLC6A9, Homo sapiens, UniProt P48067)","[3H]glycine uptake, inhibitor",HEK293F cells,3000 µM,baseline: cells without inhibitor,remaining activity,11.4%
Cc1cc(NC(=O)c2cccc(NC(=O)/C=C/CN(C)C)c2)ccc1Nc1nccc(-c2cccnc2)n1,"Mitogen-activated protein kinase 8 (MAPK8, Homo sapiens, UniProt P45983)","enzyme activity, inhibitor",,"0.5487 µM, 0 h, unit not given, together with: GSH 10 mM pre-incubation",baseline: vehicle,remaining activity,0.149
C=CC(=O)N1CCC([C@@H]2CCNc3c(C(N)=O)c(-c4ccc(Oc5ccccc5)cc4)nn32)CC1,"Mitogen-activated protein kinase 3 (MAPK3, Homo sapiens, UniProt P27361)","kinase activity, inhibitor, HotSpot radiometric",,"100 nM, together with: ATP 10 µM",,remaining activity,76.1 ± 2.5%
O=C(c1ccc(C(=O)N2CCC(N3CCCC3)CC2)c(Nc2ccccc2)c1)N1CCC(N2CCCC2)CC1,OCI-Ly1,,,"0.5 µM, 120 h",,viability,159%
O=c1cc(-c2ccc(O)c(-c3c(O)cc(O)c4c(=O)cc(-c5ccc(O)cc5)oc34)c2)oc2cc(O)cc(O)c12,UGT1A4,"glucuronidation, inhibitor",human liver microsomes,"1 µM, together with: probe substrate 0.5 µM",baseline: no inhibitor,remaining activity,~70%
NC/C(=C\F)COc1cccc(Cn2c(=S)[nH]c(=O)c3[nH]cnc32)c1,"Myeloperoxidase (MPO, Homo sapiens, UniProt P05164)","LDL lipid peroxidation, inhibitor, cholesteryl ester hydroperoxide",,0.00069 µM,,remaining activity,94%
Oc1ccc(/C=C/c2cc(O)cc(O)c2)cc1,OCI-Ly1,,,"0.1 µM, 120 h",,viability,193%
Oc1cccc(-c2nc(N3CCOCC3)c3oc4ncccc4c3n2)c1,VEGFR,enzyme activity,,10 µM,,remaining activity,92%
c1cnc2ccc(Nc3nc(NC4CC4)c4nc[nH]c4n3)cc2c1,"Serine/threonine-protein kinase pim-2 (PIM2, Homo sapiens, UniProt Q9P1W9)","kinase activity, inhibitor, SelectScreen kinase profiling",,1 µM,baseline: control,remaining activity,102%
COc1ccc2cc3[n+](cc2c1OC)CCc1cc2c(cc1-3)OCO2,"P2X purinoceptor 7 (Ailuropoda melanoleuca, UniProt G1M6C4)","ATP-evoked current, whole-cell patch clamp",HEK293 (transfected),300 µM,baseline: no compound,remaining activity,47.1%
C=CC(=O)N1CCC[C@@H](n2nc(-c3ccc(Oc4ccccc4)cc3)c3c(N)ncnc32)C1,"Receptor tyrosine-protein kinase erbB-3 (ERBB3, Homo sapiens, UniProt P21860)",,,0.1 µM,,remaining activity,100%
Nc1ncc2c(n1)-c1c([nH]c3ccc(-c4ccc(F)cc4)cc13)CCC2,"Testis-specific serine/threonine-protein kinase 1 (TSSK1B, Homo sapiens, UniProt Q9BXA7)","kinase activity, inhibitor, radiometric",,"1 µM, together with: ATP at Km",,remaining activity,79%
O=C(O)c1ccc(Nc2ncc3c(n2)-c2ccc(Cl)cc2C(c2c(F)cccc2F)=NC3)cc1,Ros(h),kinase activity,,1 µM,,remaining activity,88%
CCOc1cc(N2CCN(C)CC2)ccc1Nc1nc(N)n(C(=O)NCc2ccccc2S(=O)(=O)C(C)C)n1,"Epidermal growth factor receptor (EGFR, Homo sapiens, UniProt P00533)",enzyme activity,,10 µM,baseline: control,remaining activity,12%
Cc1cc(Nc2cc(N3CCN(C)CC3)nc(Sc3ccc(NC(=O)C4CC4)cc3)n2)[nH]n1,EPHA4,"kinase activity, KinaseProfiler",,"0.03 µM, species human",baseline: control,remaining activity,97%
C[C@@H]1CC[C@@]2(OC1)O[C@H]1C[C@H]3[C@@H]4CC[C@H]5C[C@@H](O)CC[C@]5(C)[C@H]4CC(=O)[C@]3(C)[C@H]1[C@@H]2C,UGT1A4,"glucuronidation, inhibitor",human liver microsomes,"100 µM, together with: probe substrate 50 µM",baseline: no inhibitor,remaining activity,~10%
CNc1ncc2c(/C=C/C(=O)N3CCC(OC)CC3)nn(Cc3cccc(C(F)(F)F)c3)c2n1,"Bone morphogenetic protein receptor type-1B (BMPR1B, Homo sapiens, UniProt O00238)","kinase activity, inhibitor",,1 µM,baseline: untreated control,remaining activity,85%
COc1ccc(F)cc1C(=O)NCc1ccc(-c2nn([C@@H](C)C(F)(F)F)c(N)c2C(N)=O)cc1,DDR1,"kinase activity, inhibitor, HotSpot radiometric",,"1000 nM, together with: ATP at Km",,remaining activity,87.8 ± 3.7%
COc1cc(N2CCN(C)CC2)ccc1Nc1nc(N)n(C(=S)NCc2c(Cl)cccc2Cl)n1,"MAP kinase-activated protein kinase 2 (MAPKAPK2, Homo sapiens, UniProt P49137)",enzyme activity,,10 µM,baseline: control,remaining activity,20%

# Some of these lines once more:
SMILES,target or system,assay,system,setting,scale,endpoint,value
C=CC(=O)N1CCC([C@@H]2CCNc3c(C(N)=O)c(-c4ccc(Oc5ccccc5)cc4)nn32)CC1,"Mitogen-activated protein kinase 3 (MAPK3, Homo sapiens, UniProt P27361)","kinase activity, inhibitor, HotSpot radiometric",,"100 nM, together with: ATP 10 µM",,remaining activity,76.1 ± 2.5%
O=C(c1ccc(C(=O)N2CCC(N3CCCC3)CC2)c(Nc2ccccc2)c1)N1CCC(N2CCCC2)CC1,OCI-Ly1,,,"0.5 µM, 120 h",,viability,159%
O=c1cc(-c2ccc(O)c(-c3c(O)cc(O)c4c(=O)cc(-c5ccc(O)cc5)oc34)c2)oc2cc(O)cc(O)c12,UGT1A4,"glucuronidation, inhibitor",human liver microsomes,"1 µM, together with: probe substrate 0.5 µM",baseline: no inhibitor,remaining activity,~70%
